Results gathered from unrelated publications.
Several values in a cell are separate wells, animals, samples, runs or records. ± gives the spread as reported.
TOP2A: DNA topoisomerase 2-alpha (TOP2A, Homo sapiens, UniProt P11388)
DSTYK: Dual serine/threonine and tyrosine protein kinase (DSTYK, Homo sapiens, UniProt Q6XUX3)
Pteridine reductase 1: Pteridine reductase 1 (Leishmania major, UniProt Q01782)
BEST2: Bestrophin-2a (BEST2, Homo sapiens, UniProt Q8NFU1)
T1: G-quadruplex RNA (Homo sapiens); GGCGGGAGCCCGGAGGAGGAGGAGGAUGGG

O=c1nc(SCc2cc(F)cc(C(F)(F)F)c2)nc(SCc2ccc3ccccc3n2)[nH]1  decatenated DNA (TOP2A; decatenation; 15.6 µM, replicate 2): 79.1%
CN(Cc1cnc2nc(N)nc(N)c2n1)c1ccc(C(=O)N[C@@H](CCC(=O)O)C(=O)O)cc1  uptake (Proton-coupled folate transporter (Homo sapiens, UniProt Q96NT5, del25-251); cells co-transfected with half-molecules; pH 5.5, 37 °C): 5.3%
Nc1ncc2c(n1)-c1c([nH]c3ccc(-c4ccc(F)cc4)cc13)CCC2  remaining binding (DSTYK; DiscoverX scanMAX; 1 µM; reference: untreated control): 23%
COc1cc(OC)cc(-c2cc(C(C)=O)n3ccccc23)c1  delta Tm (BRD9 (Homo sapiens, UniProt Q9H8M2); thermal stability, thermal shift; 200 µM, added: protein 10 µM): 6.5 °C
CN(C)C(=O)C(CCN1CCC(O)(c2ccc(Cl)cc2)CC1)(c1ccccc1)c1ccccc1  V1/2 (Calcium-activated potassium channel subunit alpha-1, with LRRC26 γ1 subunit (KCNMA1, Homo sapiens, UniProt Q12791); ion current, inside-out patch, fit of G-V curve; BKα/γ1 channel; 0.3 µM, added: nominally 0 Ca2+): 11.9 mV
COc1ccccc1-c1n[nH]c2nc(N[C@H]3CC[C@H](NS(=O)(=O)CCCOCCOCCNC(=O)OC(C)(C)C)CC3)ncc12  log2 SILAC ratio heavy/light (Leishmania donovani RCK (LinJ.27.0100); resin binding competition; promastigote lysate; 10 µM; reference: DMSO): 1.81
O=c1nc(SCc2cc(F)cc(C(F)(F)F)c2)nc(SCc2nc3ccccc3[nH]2)[nH]1  mean decatenated DNA (TOP2A; decatenation; 31.25 µM): 51.2%
CC(Oc1ccccc1)C(=O)NCc1ccccn1 (centres unmarked)  fold enrichment (DNA (cytosine-5)-methyltransferase 3A, PWWP domain (DNMT3A, Homo sapiens, UniProt Q9Y6K1); binding, affinity selection mass spectrometry; reference: other proteins in batch): 0.679
Cc1ccc2c(c1)sc(-c1ccc(N(C)C)cc1)[n+]2C  binding (T1, G-quadruplex RNA (Homo sapiens); ThT fluorescence; potassium phosphate 100 mM, reduced with Li+): binds
O=C(Nc1cccc2ncccc12)C1CCCN(S(=O)(=O)c2cccs2)C1 (centres unmarked)  SPR response (AASS, LKR domain (Homo sapiens, UniProt Q9UDR5); binding, surface plasmon resonance; 45 µM): 8.73 RU
NC(=O)C1CCCN1C(=O)Cc1ccc(N(CCCO)Cc2cnc3nc(N)nc(N)c3n2)cc1 (centres unmarked)  partition index (Pteridine reductase 1; hDHFR weight 10; reference: LmPTR1, LmDHFR over hDHFR, 1.0 selective, 0.0 non-selective): 0.99
O=c1nc(SCc2cc(F)cc(C(F)(F)F)c2)nc(SCc2cccc(C(F)(F)F)c2)[nH]1  decatenated DNA (TOP2A; decatenation; 125 µM, replicate 2): 0%
N[C@@H](Cc1ccccc1)C(=O)O  cAMP level (ADRB2 (Homo sapiens, UniProt P07550); HEK293 expressing β2AR; 1 µM): 18.3 pmol/mg protein and 19 pmol/mg protein and 17.7 pmol/mg protein and 18.9 pmol/mg protein and 19.8 pmol/mg protein
Nc1ccc(C(=O)O)cc1  current density (BEST2; whole-cell patch clamp; HEK293 transiently expressing channel; concentration not given, membrane potential -40 mV): -65.1 pA/pF and -115 pA/pF and -92.9 pA/pF and -146 pA/pF and -32.4 pA/pF and -128 pA/pF
CC(C)c1noc2ncc(C(=O)c3ccccc3O)cc12  inhibition (ATP-sensitive inward rectifier potassium channel 1 (Homo sapiens, UniProt P48048); ion current, whole-cell patch-clamp; 10 µM, hKir1.1): 4.76%
[O-][S+]1CCCCS1 (centres unmarked)  SOD1 dimer level (SOD1 (Homo sapiens, UniProt P00441, G94A); target engagement; SOD1 G93A transgenic mice, brain; subcutaneous, 30 mg/kg twice daily): 89.3% and 80.2%
Nc1ncnc2c1ncn2[C@@H]1O[C@H](COP(=O)(O)CP(=O)(O)OP(=O)(O)O)[C@@H](O)[C@H]1O  specific binding (P2X purinoceptor 1 (P2RX1, Homo sapiens, UniProt P51575, E122A); saturation binding; 1 nM): 11.5 corrected cpm and 10 corrected cpm
O=C(COP(=O)(O)O)[C@@H](O)[C@H](O)[C@H](O)COP(=O)(O)O  thermal stability ratio (HMGCS1 (Homo sapiens, UniProt Q01581); thermal proteome profiling; HepG2 cell lysate; concentration not given, 57 over 37 °C; reference: compound over control): 0.259 and 0.69 and 0.864
COc1ccccc1-c1ccc([C@H]2[C@@H](CO)N3CCCCN(C(=O)c4ccncc4)C[C@H]23)cc1  EC50 (IDE (Homo sapiens, UniProt P14735); enzyme activity, inhibitor, fluorogenic kinetic; added: Mca-RPPGFSAFK(Dnp)-OH substrate): 4.9 µM
COc1cc(F)ccc1-c1ncnc(Nc2cccc(C[S@](C)(=N)=O)c2)n1  remaining activity (HIPK1 (Homo sapiens, UniProt Q86Z02); kinase activity; 10 µM, added: 10 µM ATP): 85%
N[C@@H](CCC(=O)O)C(=O)O  Ka (Uncharacterized protein (Pelagibacter ubique, UniProt Q4FM26); binding, competition isothermal titration calorimetry; Candidatus Pelagibacter ubique; added: phenylalanine 1 mM competitor): 1.39e+09 M⁻¹ and 2.91e+09 M⁻¹
C=CC(=O)N1CCC[C@@H](n2nc(-c3ccc(Oc4ccccc4)cc3)c3c(N)ncnc32)C1  remaining activity (RET (Homo sapiens, UniProt P07949); 10 µM): 63.9%
Nc1ncnc2c1ncn2[C@@H]1O[C@H](C[C@@H](N)CC[C@H](N)C(=O)O)[C@@H](O)[C@H]1O  cooperativity factor σ (O-methyltransferase (Sorghum bicolor, UniProt A0A1B6PFV1); biolayer interferometry; added: saturating PTR): 0.4
CC(/C=C/C(=O)NO)=C\[C@@H](C)C(=O)c1ccc(N(C)C)cc1  viability (HBL-1; 0.1 µM, 120 h): 80.5%
O=C(O)c1ccc([N+](=O)[O-])cc1  current density (BEST2; whole-cell patch clamp; HEK293 transiently expressing channel; concentration not given, membrane potential -40 mV): -41 pA/pF and -147 pA/pF and -113 pA/pF and -103 pA/pF and -120 pA/pF
Nc1nc(N)c2c(n1)CCCC2  exchange rate kex (folA (Escherichia coli, UniProt P0ABQ4); concentration not given, ternary complex with NADPH): 543 ± 114 s⁻¹
Cc1nc(CSc2nc(SCc3ccc(C(F)(F)F)cc3)nc(=O)[nH]2)cs1  mean decatenated DNA (TOP2A; decatenation; 7.8 µM): 98.7%
CCN1CCN(c2cc(N3CCN(CC)CC3)nc(NCCNc3ccnc4cc(Cl)ccc34)n2)CC1  activation (RARA (Homo sapiens, UniProt P10276); reporter gene, Gal4 hybrid reporter; 20 µM; reference: vehicle): 1.6 fold
O=c1cc(-c2ccc(OS(=O)(=O)[O-])cc2)oc2cc(OS(=O)(=O)[O-])cc(OCc3cccc(COc4cc(OS(=O)(=O)[O-])cc5oc(-c6ccc(OS(=O)(=O)[O-])cc6)cc(=O)c45)n3)c12.[Na+].[Na+].[Na+].[Na+]  Vmax (Neutrophil elastase (ELANE, Homo sapiens, UniProt P08246); 250 nM, added: chromogenic substrate): 38.6 ± 1 mAU/min
O=C(CCCCCCC(=O)Nc1cccnc1)NO  viability (HBL-1; 0.1 µM, 120 h): 102%
NCCCS(=O)(=O)O  normalised MST signal (SLC6A6 (Homo sapiens, UniProt P31641, Y138A); binding, microscale thermophoresis; 1.95 µM, room temperature, added: 50 nM labelled protein; higher = more binding): -0.0015
NNc1ccc2ccccc2c1  selectivity ratio (Secernin-3 (Homo sapiens, UniProt Q0VDG4); gel-based ABPP; HEK-293T lysate; reference: IC50 AMD1 over Secernin-3): 35 fold
Cc1nc(CSc2nc(SCc3cc(F)cc(C(F)(F)F)c3)nc(=O)[nH]2)cs1  mean decatenated DNA (TOP2A; decatenation; 31.25 µM): 90.5%
CCc1oc2ccccc2c1C(=O)c1cc(Br)c(O)c(Br)c1  normalized urate uptake (SLC22A12 (Homo sapiens, UniProt Q96S37); inhibitor; HEK-293T; 1 µM, 10 min, 37 °C, added: [14C]urate 10 µM): 0.353 and 0.383 and 0.368
Cc1c(COc2ccc(CN3CCCCC3C(=O)NCCCC(=O)N(C)CCCC34CCC(c5ccccc53)c3ccccc34)cc2Br)cccc1-c1ccccc1 (centres unmarked)  degradation (CD274 (Homo sapiens, UniProt Q9NZQ7); degrader, western blot; HL-60; 1 µM): < 5%
O=c1ccc2nc3ccc(O[C@@H]4O[C@H](CO)[C@@H](O)[C@H](O)[C@H]4O)cc3oc-2c1  Km (GBA1 (Homo sapiens, UniProt P04062, R534H); substrate; room temperature): 31 µM
CN(c1ccccc1CNc1nc(Nc2ccc3c(c2)CC(=O)N3)ncc1C(F)(F)F)S(C)(=O)=O  Hill slope (PKN1 (Homo sapiens, UniProt Q16512); inhibitor): -0.613
CCC(C)(NCCc1ccc(C(F)(F)F)cc1Cl)c1cccc(NC2=CC(=O)N(C3CCC(=O)NC3=O)C2=O)c1 (centres unmarked)  Dmax (Cereblon/Ikaros (Homo sapiens, UniProt Q13422+Q96SW2); protein degradation, degrader, HiBiT luminescence; Jurkat): 75%
O=c1nc(SCc2cc(F)cc(C(F)(F)F)c2)nc(SCc2ccc3ncsc3c2)[nH]1  decatenated DNA (TOP2A; decatenation; 7.8 µM, replicate 2): 100%
N[C@@H](CCC(=O)O)C(=O)O  current density (BEST2; whole-cell patch clamp; HEK293 transfected; concentration not given, compound external permeant anion, at 80 mV): 27.3 pA/pF and 26.2 pA/pF and 38.7 pA/pF and 39.4 pA/pF and 39 pA/pF
Nc1nc2c(ncn2[C@@H]2O[C@H](COP(=O)(O)O)[C@@H](O)[C@H]2O)c(=O)[nH]1  reaction rate (GUK1 (Homo sapiens, UniProt Q16774, R44A); enzyme activity, NADH-coupled; 15.62 µM): -0.839 s⁻¹ and -0.763 s⁻¹ and -0.827 s⁻¹
CC[C@@H]1[C@H](F)C(=O)N[C@@H]1COc1nccc2cc(C(N)=O)c(OC)cc12  inhibition (PI4KB (Homo sapiens, UniProt Q9UBF8); ATP-site probe binding, ActivX profiling; THP-1 cell lysate; 0.2 mM): -16.4%
O=C(O)c1ccc(Nc2ncc3c(n2)-c2ccc(Cl)cc2C(c2c(F)cccc2F)=NC3)cc1  remaining activity (SAPK3(h); kinase activity; 1 µM): 121%
COc1ccc(Oc2ccc(CN(C)Cc3cnc4nc(N)nc(N)c4n3)cc2)cc1  partition index (Pteridine reductase 1; hDHFR weight 10; reference: LmPTR1, LmDHFR over hDHFR, 1.0 selective, 0.0 non-selective): 0.96
CC(=O)N[C@H](C(=O)N1C[C@H](O)C[C@H]1C(=O)NCc1ccc(-c2scnc2C)cc1)C(C)(C)SCCCCCCNC(=O)C[C@@H]1N=C(c2ccc(Cl)cc2)c2c(sc(C)c2C)-n2c(C)nnc21  −TΔS (Bromodomain-containing protein 4, BD1 (BRD4, Homo sapiens, UniProt O60885); binding, ITC; 25 °C, compound in cell, protein in syringe): 8.7 ± 0.5 kcal/mol
O=c1nc(SCc2cc(F)cc(C(F)(F)F)c2)nc(SCc2ccc3nc(Cl)ccc3c2)[nH]1  ATP hydrolysis rate (TOP2A; ATPase activity; 31.25 µM, added: ATP 0.75 mM): 1.67 µM/min and 2.38 µM/min
C=CC(=O)N1CCC(COCC(=O)N2CCN(c3nc(-c4cnc(N)nc4C(F)F)nc(N4CCOC[C@@H]4C)n3)CC2)CC1  remaining binding (DSTYK; KINOMEscan; 1 µM): 100%

For quick reference, copied from above:
Nc1nc(N)c2c(n1)CCCC2  exchange rate kex (folA (Escherichia coli, UniProt P0ABQ4); concentration not given, ternary complex with NADPH): 543 ± 114 s⁻¹
O=c1nc(SCc2cc(F)cc(C(F)(F)F)c2)nc(SCc2nc3ccccc3[nH]2)[nH]1  mean decatenated DNA (TOP2A; decatenation; 31.25 µM): 51.2%
CN(c1ccccc1CNc1nc(Nc2ccc3c(c2)CC(=O)N3)ncc1C(F)(F)F)S(C)(=O)=O  Hill slope (PKN1 (Homo sapiens, UniProt Q16512); inhibitor): -0.613
COc1ccc(Oc2ccc(CN(C)Cc3cnc4nc(N)nc(N)c4n3)cc2)cc1  partition index (Pteridine reductase 1; hDHFR weight 10; reference: LmPTR1, LmDHFR over hDHFR, 1.0 selective, 0.0 non-selective): 0.96
